Experimental data gathered from unrelated publications.
Lines come from different studies, so protocols differ. “And” joins repeats or separate records; there may be more than shown. Numbers after ± are the reported error.

CCOc1ccc(Cc2cc([C@]34OC[C@](CO)(O3)[C@@H](O)[C@H](O)[C@H]4O)ccc2Cl)cc1
Tmax (human, fasted, plasma; oral, dose not given, range of medians, monotherapy and fixed-dose combinations): 1 to 1.5 h

CCn1c(C(=O)c2cc(C)cc(C#N)c2)c(C(C)C)c(=O)[nH]c1=O
Tmax (healthy humans, plasma; oral, 300 mg once daily, 7 days, median): 1.5 h

Cn1c(Cn2ccc(C(F)(F)F)c(Oc3cc(Cl)cc(C#N)c3)c2=O)n[nH]c1=O
Tmax (human, plasma; oral, 100 mg once daily, median, together with: islatravir 2.25 mg once daily): 2 h

CC(C)[C@H](N)C(=O)NCCCS(=O)(=O)O
Tmax (healthy human, both sexes, plasma; oral, 300 mg capsule, median): 0.75 h

Nc1ccc(-c2nc([C@H]3CCc4cc(-c5cc(Cl)ccc5-n5cnnn5)cc(=O)n43)c(F)[nH]2)c(F)n1
Tmax (human, plasma; oral, day 14, multiple dosing, final dose): 4 to 6 h

CC(C)NC[C@@H](C(=O)N1CCN(c2ncnc3c2[C@H](C)C[C@H]3O)CC1)c1ccc(Cl)cc1
Tmax (human, Severe hepatic function, plasma; oral, 100 mg single dose, NCI classification, median): 1 h

CC(C)c1nc(CN(C)C(=O)N[C@H](C(=O)N[C@@H](Cc2ccccc2)C[C@H](O)[C@H](Cc2ccccc2)NC(=O)OCc2cncs2)C(C)C)cs1
Tmax (human, HIV+/HCV+ with cirrhosis, plasma; oral, total drug, steady state, median, together with: lopinavir/ritonavir twice daily): 5 h

CCc1cc2c(cc1N1CCC(N3CCOCC3)CC1)C(C)(C)c1[nH]c3cc(C#N)ccc3c1C2=O
Tmax (human, hepatic impairment and healthy, plasma; oral, 300 mg single dose, median across groups): ~6 h

COC(=O)c1ccc2c(c1)NC(=O)/C2=C(\Nc1ccc(N(C)C(=O)CN2CCN(C)CC2)cc1)c1ccccc1
Tmax (human, moderate liver impairment, plasma; oral, 150 mg twice daily, steady state): 4.08 h

CCOc1cc([C@@H](CS(C)(=O)=O)N2C(=O)c3cccc(NC(C)=O)c3C2=O)ccc1O[C@@H]1O[C@H](C(=O)O)[C@@H](O)[C@H](O)[C@H]1O
Tmax (healthy human controls, plasma; oral, 30 mg apremilast, matched to severe impairment): 4 h

N#CCNC(=O)c1ccc(-c2ccnc(Nc3ccc(N4CCOCC4=O)cc3)n2)cc1
Tmax (human, plasma; oral, 200 mg momelotinib once daily, cycle 1 day 15, median, together with: trametinib 1.0 mg once daily): 2 h

CCCS(=O)(=O)N[C@H]1C[C@@H](N(C)c2ncnc3[nH]ccc23)C1
Tmax (human, hepatic function groups; oral, 200 mg, range of group medians, single dose): 1 to 2 h

O=C(Cc1cccc(OC(F)(F)F)c1)Nc1ccc(CCCCc2nnc(NC(=O)Cc3ccccn3)s2)nn1
Tmax (human patients, plasma; oral, 250 mg three times daily fasted, cycle 1 day 15 steady state): 2 h

C=CC(=O)N1CCC([C@@H]2CCNc3c(C(N)=O)c(-c4ccc(Oc5ccccc5)cc4)nn32)CC1
Tmax (human; oral, 160 mg single dose, median): 1.5 h

NC(=O)N1CCC(CC(=O)N2CCC([C@H]3c4ncc(Br)cc4CCc4cc(Cl)cc(Br)c43)CC2)CC1
Tmax (human, plasma; oral, 150 mg twice daily, cycle 2 day 15, multiple dose, median, together with: gemcitabine 750 mg/m2): 8 h

CCOc1c([C@H](C)n2nc(C)c3c(N)ncnc32)cc(Cl)c(F)c1[C@@H]1CNC(=O)C1
Tmax (human; oral, 20 mg, alone or with rifampin): ≤ 1 h

CO[C@H]1C[C@@H]2CC[C@@H](C)[C@@](O)(O2)C(=O)C(=O)N2CCCC[C@H]2C(=O)O[C@H]([C@H](C)C[C@@H]2CC[C@@H](O)[C@H](OC)C2)CC(=O)[C@H](C)/C=C(\C)[C@@H](O)[C@@H](OC)C(=O)[C@H](C)C[C@H](C)/C=C/C=C/C=C/1C
Tmax (healthy human subjects, whole blood; oral, 2 mg single dose, median, together with: isavuconazole 200 mg once daily after loading): 2 h

C=CC(=O)N(C)CCOc1c(N)ncnc1-c1cc(F)cc(NC(=O)c2ccc(C3CC3)cc2F)c1C
Tmax (healthy humans, fasted, whole blood; oral, 60 mg single dose, median): 0.767 h

CCCOc1ccc([C@H]2CNC(=O)N2c2ccc3[nH]cnc3c2)cc1
Tmax (human, elderly, fasted, plasma; oral, 500 mg twice daily, tablet, day 11, median): 0.5 h

CN[C@@H]1COc2c(S(=O)(=O)NC(=O)Nc3c4c(cc5c3CCC5)CCC4)cnn2C1
Tmax (human; oral, 600 mg, fasted, median): 2 h

N[C@]1(C(=O)O)[C@H]2[C@@H](C[C@@H]1F)[C@@H]2C(=O)O
Tmax (human, both sexes, fed, plasma; oral, 5 mg, day 14, multiple ascending dose): 2 h

Cn1cncc1[C@@](N)(c1ccc(Cl)cc1)c1ccc2c(c1)c(-c1cccc(Cl)c1)cc(=O)n2C
Tmax (human, plasma; oral, 1400 mg twice daily, day 5): 3 h

CCCNS(=O)(=O)Nc1ncnc(OCCOc2ncc(Br)cn2)c1-c1ccc(Br)cc1
Tmax (healthy male humans, plasma; 300 mg, some subjects): ≤ 48 h

CC(C)(Sc1ccncc1-c1ccc(C#N)c2ccccc12)C(=O)O
Tmax (humans, male, normal renal function, fasted, plasma; oral, 15 mg): 2.5 h

COc1cc(Nc2ncc3c(n2)-c2ccc(Cl)cc2C(c2c(F)cccc2OC)=NC3)ccc1C(=O)O
Tmax (human, phase I; oral, 30 mg twice daily, together with: combination with other drug): 1.3 ± 1.6 h

CCCC[C@H](NC(C)=O)C(=O)N[C@H]1CC(=O)NCCCC[C@@H](C(=O)O)NC(=O)[C@H](Cc2c[nH]c3ccccc23)NC(=O)[C@H](CCCN=C(N)N)NC(=O)[C@@H](Cc2ccccc2)NC(=O)[C@H](Cc2cnc[nH]2)NC1=O
Tmax (human, plasma; subcutaneous, 1.25 mg, second dose): 0.53 h

CN1C(=O)[C@@H](NC(=O)c2nnc(Cc3ccccc3)[nH]2)COc2ccccc21
Tmax (human male, plasma; oral, 120 mg twice daily, day 14): 2 h

O=C(c1ccc(OCCN2CCCCC2)cc1)c1c(-c2ccc(O)cc2)sc2cc(O)ccc12
Tmax (healthy humans, plasma; oral, 60 mg, together with: chronic green tea): 1 h

COc1ccc2nc([S@@+]([O-])Cc3ncc(C)c(OC)c3C)[nH]c2c1
Tmax (HPLC; human CYP2C19 normal metabolizers, plasma; oral, 40 mg/day, day 1, pantoprazole): 6 ± 8 h

N[C@@H](Cc1ccc(O)c(O)c1)C(=O)O
Tmax (dry-powder inhaler; human, plasma; inhalation, 60 mg): ≤ 0.25 h and 0.167 h and 0.0833 h

CCOc1ccc(Cc2cc([C@@H]3S[C@H](CO)[C@@H](O)[C@H](O)[C@H]3O)c(OC)cc2C)cc1
Tmax (human, plasma; oral, 10 mg/day, day 1, multiple dose before breakfast): 0.5 h

Cc1cccc(Cn2nc(C3CC3)c3c(NC(=O)c4cnc5cc(OCCN6CCN(C)CC6)ccn45)cccc32)n1
Tmax (human patients Overall, plasma; oral, 300 mg, cycle 2 day 1, median): 2 h

COc1cccc(-c2ccc(NC(=O)C3=C(C(=O)O)CCC3)c(F)c2)c1
Tmax (healthy male humans, plasma; oral, 40 mg once daily, day 13, median): 3 h

C[C@]12CCC(=O)C=C1[C@@H]1C[C@@H]1[C@H]1[C@@H]3[C@@H]4C[C@@H]4[C@@]4(CCC(=O)O4)[C@@]3(C)CC[C@@H]12
Tmax (human female; day 1, oral contraceptive alone, median): 3 h

Cc1[nH]c(/C=C2\C(=O)Nc3ccccc32)c(C)c1CCC(=O)O
Tmax (human patients; oral, 400 mg/m^2 twice daily, after meal, dose 55): 2.25 ± 0.5 h

COCCCCn1c(C(=O)N(CC(C)C)[C@@H]2CNC[C@H](C(=O)N3CCOCC3)C2)nc2ccccc21
Tmax (non-elderly human, plasma; oral, 160 mg once daily, day 7): 1.5 h

CS(=O)(=O)n1cc2c(n1)CN([C@H]1CO[C@H](c3cc(F)ccc3F)[C@@H](N)C1)C2
Tmax (healthy male human, plasma; oral, 50 mg once weekly, day 1, fasted, median): 4 h

Cc1ccc(NC(=O)c2ccc(CN3CCNCC3)cc2)cc1Nc1nccc(-c2cccnc2)n1
Tmax (human patients, plasma; oral, 400 mg of imatinib, first dose, day 1 of cycle 1): 2.3 h

CNC(=O)c1ccccc1Sc1ccc2c(/C=C/c3ccccn3)n[nH]c2c1
Tmax (human, fed, plasma; oral, 7 mg single dose, median): 4 h

C=C(C)[C@@H]1CC[C@]2(NCCN3CCS(=O)(=O)CC3)CC[C@]3(C)[C@H](CC[C@@H]4[C@@]5(C)CC=C(C6=CC[C@@](CF)(C(=O)O)CC6)C(C)(C)[C@@H]5CC[C@]43C)[C@@H]12
Tmax (human, HIV-1 treatment-naive, plasma; oral, 10 mg once daily, day 8): 4.02 h

CON(C)C(=O)N1N=C(c2cc(F)ccc2F)S[C@@]1(CCCN)c1ccccc1
Tmax (human; intravenous, 1.2 mg/m^2, cycle 1 day 3, median): 1 h

O=c1[nH]c(=O)c(Cc2cccc(C(F)(F)F)c2)c([C@H]2CC[C@H](c3ccccc3)CC2)[nH]1
Tmax (human, fasted, plasma; oral, 100 mg single dose, median): 2.01 h

COc1ccnc(C[S+]([O-])c2nc3ccc(OC(F)F)cc3[nH]2)c1OC (stereo not drawn)
Tmax (HPLC; human CYP2C19 ultra-rapid metabolizers, plasma; oral, 40 mg/day, day 5, esomeprazole): 4 h

C[C@H]1C[C@@H]2[C@H]([C@@H](O)C[C@@]3(C)[C@H]2CC[C@]3(O)C(=O)CO)[C@@]2(C)C=CC(=O)C=C12
Tmax (item: free compound; human, plasma; oral, once daily, 32 mg, day 4, median): 2 h

CC(=O)c1c(C)c2cnc(Nc3ccc(N4CCNCC4)cn3)nc2n(C2CCCC2)c1=O
Tmax (human; oral, 95 mg/m^2 repeated doses, day 21): 6 ± 3 h

O=C(O)CNC(=O)c1c(O)c2ccccc2n(OCC2CC2)c1=O
Tmax (human; oral, 150 mg single dose, fed, high-fat breakfast): 5 h

Cc1ccc(NC(=O)c2ccc(CN3CCN(C)CC3)cc2)cc1Nc1nccc(-c2cncc(-c3oncc3C)c2)n1
Tmax (older healthy human adults, plasma; oral, 175 mg single dose, fed, mean): 5.67 h

C#C[C@]1(CO)O[C@@H](n2cnc3c(N)nc(F)nc32)C[C@@H]1O
Tmax (human, plasma; oral, 10 mg once weekly, week 1): 1 h
